Experimental data collected from several papers.
Compare with care: the assays were run in different laboratories. ± marks the error that the study gave.

SMILES | assay | test system | conditions | how to read | measurement | value
O=C1CCc2ccc(OCCCCN3CCN(c4cccc(Cl)c4Cl)CC3)cc2N1 |  | patients CYP2D6 UM | 6 months |  | stopping or switching | 45%
N#Cc1ccc2c(c1)[C@H]1CCCN(C(=O)c3ccc4[nH]cnc4c3)[C@H]1C2 |  | T2DM patients with overweight or obesity, urine | oral, 10 mg, day 1, 0-24 h, multiple dosing, adjusted geometric mean | relative to: baseline day -1, -24-0 h | total urinary corticosteroid excretion | 155%
OC(CCN1CCCCC1)(c1ccccc1)C1CC2C=CC1C2 (stereo not drawn) | resting-state EEG | healthy elderly humans | oral, 2 mg, eyes open, LS mean | relative to: baseline | change in EEG Alpha2-power Pz-O2 | 22.1%
c1ccc(-c2n[nH]cc2-c2ccnc3ccccc23)nc1 | kinase binding, competitor, MIB/MS competition, refers to: YPK1 | Candida albicans cell lysate | 1 µM | relative to: DMSO | log2 fold change | 1.3
Cc1cnc(N2CC3(CCOCC3)C2)c(C(=O)Nc2ccc(C(=O)N3CCc4cc(C(=O)Nc5c(C)cccc5F)sc4-c4ccccc43)cc2)c1 | refers to: IL-15 | human RSV infection, nasal wash | dose not given, AUC, ITT-IS population | relative to: placebo | inhibition | 31%
NC(=O)c1cnc2[nH]ccc2c1N[C@@H]1[C@@H]2CC3C[C@H]1C[C@@](O)(C3)C2 | flow cytometry | Japanese healthy men, blood | oral, 30 mg twice daily, 72 h after day 7 dose | relative to: baseline | CD4+ memory T-cell change | -0.83%
C=CCn1c(=O)c2cnc(Nc3ccc(N4CCN(C)CC4)cc3)nc2n1-c1ccc2c(n1)[C@@](O)(CC)CC2 |  | SW-403 xenograft, BALB/c nude mice | oral, 80 mg/kg once daily x 28, day 27 | relative to: vehicle | tumour growth inhibition | 40%
COc1cc(Nc2ncc3c(n2)-c2ccc(Cl)cc2C(c2c(F)cccc2OC)=NC3)ccc1C(=O)O |  | female NOD/scid mice, ALL-8 T-cell ALL xenograft | 2.6 mg/kg, 5 days weekly, score scale 0 to 10 | direction not given | median response score | 2
CC(C)[C@H](C(=O)Nc1ccc(C(=O)NO)cc1)c1ccccc1 | MRI volumetry | human, right IAC schwannoma | dose not given, day 1143 post-treatment |  | tumour volume | 0.0236 cm³
CCO[C@H]1CCN(Cc2c(OC)cc(C)c3[nH]ccc23)[C@H](c2ccc(C(=O)O)cc2)C1 |  | PNH patients, blood | oral, 50 mg then 200 mg, week 8, mean percent change | relative to: baseline | C3d-positive type III RBCs | -94.6%
C[C@H](Oc1ccc(Br)cc1-c1ccon1)C(=O)O | muscle velocity recovery cycle | human, tibialis anterior muscle | 600 mg once daily, last response peak at 15 Hz, multiple ascending dose |  | difference from placebo | -1.88%
CS(=O)(=O)CCNCc1ccc(-c2ccc3ncnc(Nc4ccc(OCc5cccc(F)c5)c(Cl)c4)c3c2)o1 | tumour growth | MDA-MB-361 orthotopic xenograft, mouse | oral, daily for 28 days |  | ED50 | 109 mg/kg
COc1nc(-c2cc(C)c(N[C@@H](C)c3cc(F)cc(F)c3)nn2)ccc1-n1cnc(C)c1 | refers to: Aβ40 | rat Sprague-Dawley male, brain | oral, 25 mg/kg daily for 9 days, 4 h after dose | relative to: vehicle | change in level | 66%
CC1(C)CCC2(CC1)N[C@@H](C(=O)N[C@@H]1CC[C@@H](C(N)=O)OC1)[C@H](c1ccnc(Cl)c1F)[C@]21C(=O)Nc2cc(Cl)ccc21 | RECIST | patients with solid tumours | dose not given | relative to: patients | progressive disease | 31.3%
CN[C@@H]1COc2c(S(=O)(=O)NC(=O)Nc3c4c(cc5c3CCC5)CCC4)cnn2C1 | refers to: IL-1β | human participants, whole blood ex vivo | 300 mg twice daily, multiple doses, 12 h, added: LPS/ATP | relative to: baseline | inhibition | 95.4%
[Cl-].[Cl-].[Pt+2].[Ru+2].c1ccc(-c2nccnc2-c2ccccn2)nc1.c1cnc2c(c1)ccc1cccnc12.c1cnc2c(c1)ccc1cccnc12 | chloride substitution, UV-vis kinetics | aqueous buffer | concentration not given, pH 7.2, first substitution step, added: L-methionine |  | negative activation entropy | 163 ± 7 J/(mol·K)
CC(C)NCC(O)c1ccc(O)c(O)c1 (stereo not drawn) |  | ventricular cardiomyocytes, C57BL/6 mouse | dose not given, 0.092 s |  | sarcomere length | 1.72 µm
CN(C(=O)n1cnc(-c2ccc[n+]([O-])c2)c1)C1CCCCC1 | refers to: PEA | human, plasma | 5 mg once daily, day 10 |  | AUC(0-tau) | 134 ng·h/mL

A few entries again:
SMILES | assay | test system | conditions | how to read | measurement | value
CC1(C)CCC2(CC1)N[C@@H](C(=O)N[C@@H]1CC[C@@H](C(N)=O)OC1)[C@H](c1ccnc(Cl)c1F)[C@]21C(=O)Nc2cc(Cl)ccc21 | RECIST | patients with solid tumours | dose not given | relative to: patients | progressive disease | 31.3%
